Measured values of several laboratories.
Numbered parts are unrelated; each lists some results of a single study. Substitutions count along the parent as printed.

Block 1
Target: CCND3, cyclin fold, Cln2 fusion (human)
Method: yeast growth competition, sequencing
Medium: yeast
Notes: weak parent motif
Baseline: not given
Direction: higher = stronger binding
Parent: E2F1 docking peptide (human); PPVKRRLDFETDH
Variant	normalised enrichment score
D12E	0.34
L7C	0.312
P2H	0.186
E10Y	0.112
V3M	-0.0356
E10L	-0.0439
R5G	0.18
V3N	-0.209
D12P	0.429
R5M	-0.0447
L7A	0.353
K4T	0.0784
F9Y	0.0396
D8L	0.269
D8P	0.39
P2S	0.229
V3S	0.293
P2W	-0.104
E10H	-0.0971
T11C	0.443
E10Q	0.106
R6W	0.143
D12H	0.11

Block 2
Target: RING finger protein unkempt homolog, zinc fingers 1-6, GST-SBP tag (UNK, Homo sapiens, UniProt Q9C0B0, residues 30-357)
UniProt Q9C0B0, sequence (30-357, looked up): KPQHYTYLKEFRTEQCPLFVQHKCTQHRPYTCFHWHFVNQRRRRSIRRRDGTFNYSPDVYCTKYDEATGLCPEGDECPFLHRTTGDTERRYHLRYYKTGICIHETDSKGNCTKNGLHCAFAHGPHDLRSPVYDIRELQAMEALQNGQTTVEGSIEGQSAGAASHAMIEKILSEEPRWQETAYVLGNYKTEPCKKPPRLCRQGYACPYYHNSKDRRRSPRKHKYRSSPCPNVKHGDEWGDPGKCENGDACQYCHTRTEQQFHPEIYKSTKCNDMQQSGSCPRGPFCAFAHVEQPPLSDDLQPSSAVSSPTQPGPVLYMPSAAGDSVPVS
Method: RNA Bind-n-Seq
Form: RNA
Medium: in vitro
Concentration: not given
Notes: RNA with constant flanks, human and mouse sites, ends assumed
Baseline: input RNA pool
Direction: higher = stronger binding
Shared flanks, not repeated: GGGAGUUCUACAGUCCGACGAUC … CAACAGAGGAUUGAGCAUCA
Strand	bound/input enrichment
AAGGAUGCAAGGUCCGAUUCCUGGCAGCUCGUGCAGACCCAGUGCCUACCUUCCUCUUCCAAUAGCAUUGGCUGCUCCCCGUUCCAGUUCCAUGAAGCCACCAUUUAUAAUGCUGUCAAC	0.148 ratio
CUCACUGUUCAUUACAAAAGCGUACACCUUGGAGAGAAAGUGUGGCAAAAAUAUAAAGCAACAUUUCAUCAAUGUGAUGUUUGUAAGAAAAUUUUUAAAGGCAAAUCAAGUCUGGAAAUG	0.161 ratio
GUUUUGAAUAUCUUGUGUAAGCAAUUUCAUUUUUUUCCCCCACUGUCAGAAAGCUAAGGGAAGCUUCAGAGUUCUAAUCCAGUUGCAUGUAGGACAAAGGAUAUACUUUAAAUAAAGACC	0.637 ratio
AGUCUUCUAUUUUUAAUAGGAACUUAGAAAAAACUUAGAAUUAUAUAUAGAGUUGUUUCCUUUAGAAACCAGAGCUAUUUAUUUGUAUUUAAAGCACUGUUUAUUAUUUGUACUGAUUCU	98.5 ratio
ACAAAAAUCAAGAAAAUGUUUCUCACCUCUCAGUUUCUUCUGCUUCACCAACAUCGUCCGUAGCAUCAGCUGCAGGAAGUGUAACAAGCUCUAGUCUUCAGAAAUCUCCUACGCUGCUCA	0.271 ratio
ACUCAAGUAACAACACAACCAAAGUUAGGAGAGGUACAGCAGAAGUGUCAUCAAUUCUGUGGCUGGGAAGGGUCUGGAUUCCCUGGAGCACAGCCUGUUUCCAUGGACAAGCAAAAUAUU	0.26 ratio
ACCUGGGGCAUUCAGCCAGCGCCCAUGCCUGUGCCUGUGUGGGUGAUCAUUUUAGCAGUUCUAGCAGGAUUGUUGCUACUGGCUGUUUUGGUAUUUGUAAUGUACAGGAUGGGCUUUUUU	0.374 ratio
UUUGGUGCCAUUGGUUUCUUCUGGGUUGAGUGAGAUGUUGGAUAUUGCUAUCAAUCGCAGUAGUCUUUCCCCUGUGUGAGGCUGAAGCCUCAGAUUCCUUCUAAACACAGCUAUCUAGAG	0.243 ratio
GAAGAAGGCUGCUUUGCGUUUGUUUUUAAGACGUUAACAUUAUUUUUUUGGUUGUACUGCACUAGGAAAUCUCUCCUACCCCUCCUUUUCUCUUCUCUCCCUAGAUAAAAAUAAAAGGCC	3.73 ratio
UGACUAUUAUAUGGUGGGUGUGUUUCCUUACCAGCGUGAGUAUGAGUGCCCAGACUUCCCCAGCAGAGAAGGGCCUGAAUCCGGGGCUGAUGUGCCAGGAAAGUUACGCUUGCAGCGGGA	0.246 ratio
AGGGAAGUCUGAAAUCCACACUGCAUUUUUAAUGAAUCCAAAUAACUUUAUUACGUUCUUUCAAAUGAAAAGGACAAGUUUUAUACAGUGAGAAUUGGGUGAUUUUUUUUUUUUUUACAU	3.03 ratio

Block 3
Target: Histone acetyltransferase KAT6A, winged helix 1, GST fusion (KAT6A, Homo sapiens, UniProt Q92794, residues 1-85)
Method: protein binding microarray
Form: double-stranded DNA, one strand shown
Medium: in vitro
Concentration: not given
Notes: 8-mer, flanks averaged, mean of 2 arrays, mostly near background
Baseline: not given
Direction: higher = stronger binding
Construct (chain): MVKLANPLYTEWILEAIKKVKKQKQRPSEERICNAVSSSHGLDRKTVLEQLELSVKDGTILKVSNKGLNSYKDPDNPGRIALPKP
Strand	E-score
ATGATAGG	-0.158
CTTTTCGA	-0.215
GGTTCACA	0.0361
GAACACTA	-0.00798
AATCATCC	-0.155
ATCTGTAA	-0.0433
ATTACAGC	0.0743
ATCTGATC	-0.0441
AGTATCTA	-0.15
CTCTGGTC	-0.0146
AGCCGGCC	0.222
GGGGTGTA	0.0133
CGTGTAAC	0.106
ACGAGTCA	-0.171
GTGAGGTA	-0.11
AGGGCTTA	-0.0213
AACCCCAC	-0.154
CTGCCGAA	0.0635
GCAGGTCA	-0.055
ATTGAACA	-0.106
CAGACAGA	-0.279
ACCGTAGC	0.275
CCTCCCCA	-0.0647
ACTTACGG	0.261
ACGCGACC	0.267

Block 4
Target: Interferon regulatory factor 7, full length, phosphomimetic (IRF7, Homo sapiens, UniProt Q92985, residues 1-503, S471D/S472D/S475D/S476D/S477D/S483D/S484D/S487D)
Method: protein-binding microarray
Form: double-stranded DNA, one strand shown
Medium: in vitro
Concentration: 2200 nM top
Notes: 60-bp whole probe
With: salmon DNA 0.4 mg/ml
Baseline: random background probes
Direction: higher = stronger binding
Shared flanks, not repeated: GCCTAGCAC … GTCTTGATTCGCTTGACGCTGCTG
Construct (chain): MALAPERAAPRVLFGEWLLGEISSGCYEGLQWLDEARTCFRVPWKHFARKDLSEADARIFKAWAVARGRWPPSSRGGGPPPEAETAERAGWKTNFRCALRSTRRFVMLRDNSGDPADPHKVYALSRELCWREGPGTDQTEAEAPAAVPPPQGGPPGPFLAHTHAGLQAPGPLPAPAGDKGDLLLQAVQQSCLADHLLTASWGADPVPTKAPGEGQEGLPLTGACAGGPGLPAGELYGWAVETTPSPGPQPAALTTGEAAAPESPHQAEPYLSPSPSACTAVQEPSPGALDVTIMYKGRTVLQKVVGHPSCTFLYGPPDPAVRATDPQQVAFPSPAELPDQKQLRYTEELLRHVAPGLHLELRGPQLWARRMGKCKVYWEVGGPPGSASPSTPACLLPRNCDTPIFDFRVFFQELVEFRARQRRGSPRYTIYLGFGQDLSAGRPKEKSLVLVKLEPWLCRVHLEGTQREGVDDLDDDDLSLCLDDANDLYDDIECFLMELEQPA
Strand	fitted relative affinity
GACCGTCTCGGACTGGGGACGTGCTAG	-0.543 z-score
TTAGGTTTCGTGACTGGGTTAGTGCTA	1.95 z-score
TTAGGTTTCCTACTGCTTAAGTGCTAG	1.09 z-score
TCACATCTCCAAAGTCAGACTGTGCTA	1.15 z-score
TGAGGTTTCGACTTTCGGTTAGTGCTA	9.96 z-score
TCAGGCTTTCCTTTATGACTGTGCTAG	0.806 z-score
GACGGTATCGGTCTCGGGAGGTGCTAG	-0.202 z-score
CTTACTTTATGTAGGAAGTCGTGCTAG	0.458 z-score
TTAGGAATCCTTCTCCTTTAGTGCTAG	0.393 z-score
GACAGACTGCTTTTCCTGACGTGCTAG	0.752 z-score
TTAGGTATCGGGACTGGGTTTGTGCTA	-0.224 z-score
CTCAAGATTCCTCTCACCTCGTGCTAG	0.997 z-score
TCCCTATTATATATATCATAGTGCTAG	1.71 z-score
ACTTTTTTTTTTCCCTGAAAGTGCTAG	2.49 z-score
TTAGGTTCCCTTTTTCTTTAGTGCTAG	1.94 z-score
TTAGGTTTCGGTTTCGGTTCGTGCTAG	19.5 z-score
GACGGTTTCGATACTGGGGACGTGCTA	4.73 z-score
ACCGTTGTAGTTTTCATTATGTGCTAG	2.07 z-score
TTAGATTTCGCGACTGGATTAGTGCTA	0.395 z-score
GACGCTTTCGGGACTGGGGACGTGCTA	4.3 z-score
TTAGATATCCGTATCGATTAGTGCTAG	0.56 z-score
TCAGTTTTCAATTTTTGACTGTGCTAG	2.06 z-score

Block 5
Target: PABPC1L2, full length, GST fusion (mouse, UniProt A0ABA7IW68)
Method: RNAcompete
Form: RNA
Medium: in vitro
Concentration: 20 nM
Notes: 7-mer, probes averaged, single round
Baseline: mean of 7-mers
Direction: higher = stronger binding
Residues (chain): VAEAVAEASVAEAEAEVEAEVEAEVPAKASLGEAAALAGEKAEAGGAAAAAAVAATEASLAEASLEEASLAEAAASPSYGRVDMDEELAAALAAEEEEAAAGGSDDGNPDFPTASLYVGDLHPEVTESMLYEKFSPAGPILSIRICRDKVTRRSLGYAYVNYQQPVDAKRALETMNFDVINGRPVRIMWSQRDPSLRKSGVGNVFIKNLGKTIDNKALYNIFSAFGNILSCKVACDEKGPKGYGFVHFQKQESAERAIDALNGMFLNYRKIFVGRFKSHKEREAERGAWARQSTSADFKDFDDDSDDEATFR
Strand	7-mer Z-score
ACACACC	-0.0156
UUAUUUA	-0.0736
AAUGCGU	-0.17
AUGAAAC	0.173
AUUCCGU	-0.257
CCGCCGC	-0.371
AUUAGUG	-0.132
ACGGCGC	-0.0482
ACACUCC	-0.18
CCAUCCU	-0.374
AGCGUUC	-0.364
UGGUUCG	-0.296
CGGCGAG	0.075
AAGAUUG	0.374
UCCUCAA	-0.311
CGGCAAG	0.189
AUAUCAU	-0.142
UGAAUCA	-0.0174
GCAUAGC	-0.257
GUAAACG	-0.012

Excerpt of the above (block 1):
Variant	normalised enrichment score
D12P	0.429
R5M	-0.0447
L7A	0.353
K4T	0.0784
F9Y	0.0396
D8L	0.269
D8P	0.39
P2S	0.229
V3S	0.293
P2W	-0.104
E10H	-0.0971
